Measurements gathered from unrelated publications.
Lines come from different studies, so protocols differ. Values joined by “and” are separate records of one study, mostly repeats; a detail may differ. ± marks the error that the study gave.

SMILES | tested on | assay | system | conditions | scale | measurement | value
CNS(=O)(=O)Nc1nccc(Cc2c(C)c3ccc(Oc4ncccc4F)cc3oc2=O)c1F | ABC-1 | cell viability | – | 7 days | – | IC50 | 113 nM
O=C(N/N=C/c1ccc(C[n+]2ccccc2)cc1)N/N=C/c1ccc(C[n+]2ccccc2)cc1 | hp2 hairpin duplex DNA | FRET melting | – | 1 µM | – | ΔTm | 1.1 ± 0.1 °C
CN(C)c1ccc(-n2cc(COC(=O)[C@]3(C)C=C(C(=O)OC(C)(C)C)C(=O)CC3)nn2)cc1 | AP-1 reporter HEK293 | AP-1 reporter gene, luciferase reporter | – | 10 µM, 6 h, with: PMA 6 ng/mL | baseline: PMA alone | luminescence relative to PMA | 0.103
CCOc1cncc(-c2ccc(NC(=O)C3(c4ccnc(NS(=O)(=O)C5CC5)n4)CCOCC3)nc2)n1 | OPM-2 | cell growth or viability, ATP luminescence | – | 72 h | – | IC50 | 116 nM
CSC(=S)N/N=C(\C)c1ccc(Nc2nnc(-c3ccc(Cl)cc3)c3ccccc23)cc1 | HepG2 | cell growth or viability, MTT | – | 0.625 µM | – | cell death | 93.3%
CCN(C(=O)c1cc(F)ccc1Oc1nncnc1N1CCC2(C1)CN([C@H](CCCN(C)CCOC)C(C)C)C2)C(C)C | JAR | cell growth or viability | – | 7 days | – | GI50 | > 10000 nM
CC(C)c1ccc(N(C)c2ccc3c(c2)OCC[C@H]3CNc2cnccc2C(=O)O)cc1 | ASPC1 | cell growth or viability, ATP luminescence | – | 7 days | – | IC50 | 66.8 nM
CC(=O)OC[C@H]1O[C@@H](n2cc(CSc3nc4ccccc4n3Cc3cn([C@@H]4O[C@H](COC(C)=O)[C@@H](OC(C)=O)C(OC(C)=O)[C@H]4OC(C)=O)nn3)nn2)[C@H](OC(C)=O)C(OC(C)=O)[C@@H]1OC(C)=O (stereo in doubt) | MDA-MB-231 | MTT | – | 500 ppm | – | cytotoxicity | 92.5%
COCCCCCNc1nc(NCCCCCCN(C)C)c2cc(NC(=O)/C=C/CN(C)C)ccc2n1 | MCF7 | CellTiter-Glo | – | 1.562 µM, 24 h, unit not given | baseline: DMSO-treated cells | viability | 1.05 and 1.11 and 1.03
CO[C@@H]1[C@@H](OC(N)=O)[C@@H](O)[C@H](Oc2ccc3c(O)c(NC(=O)c4ccc(O)c(CC=C(C)C)c4)c(=O)oc3c2C)OC1(C)C | DLD-1 parental | – | – | 100 µM, replicate 1 | – | colony count | 50
N#Cc1cccc(/C=C/C(=O)c2ccc(O)cc2)c1 | U-87 MG | item: JHDM1D | – | concentration not given | baseline: untreated | fold change | 34.3
CC(C)(C)c1cc(-c2ccc3cccnc3n2)nc(-c2ccc3cccnc3n2)c1.COc1ccncc1.[Cl-].[Cl-].[Ru+2].c1ccc2cc3nc4c5cccnc5c5ncccc5c4nc3cc2c1 | A-375 | resazurin | – | with: light 733 nm, 9 mW, 100 J/cm2 | – | EC50 | 2000 nM
Cn1ncc2cc(-c3cncc(Cl)c3N3CCC4(CCNC4=O)CC3)ccc21 | LS174T | gene expression, microarray, item: CA9 mRNA | – | concentration not given, 4 h | baseline: untreated cells | log2 fold change | 2.84
COc1cc(/C=C/C(=O)CC(C)=O)ccc1O | A549 | PI staining flow cytometry | – | 50 µM, 48 h | – | cells in G1 phase | 18.2%
Cc1ncsc1-c1ccc(C(C)NC(=O)C2CC(O)CN2C(=O)C(NC(=O)CCCCCCCCCCN2CCCC(Nc3ncc(Cl)c(Nc4ccccc4S(=O)(=O)C(C)C)n3)C2)C(C)(C)C)cc1 (stereo not drawn) | 22Rv1 | RNA-seq, item: ZNF879 mRNA | – | concentration not given | baseline: DMSO | log2 fold change | -1.95
CN1CCC(N[C@@H]2CCc3[nH]c4c(C(N)=O)ccc(-c5ccccc5Cl)c4c3C2)CC1 | B16F10 | cell proliferation | – | 96 h | – | IC50 | 17.5 nM
CC(C)(C)n1cc(CN(Cc2cn(CC(=O)O)nn2)Cc2cn(C(C)(C)C)nn2)nn1 | OVCAR-5, HPG-incorporated | live-cell CuAAC, LC-ESI-MS/MS | membrane proteins | 200 µM, 10 min, adherent cells, no pre-treatment, with: 500 µM sodium ascorbate, CuSO4 | – | amount of labelled product | 2.76 pg/µg protein and 3.09 pg/µg protein and 3.25 pg/µg protein
COc1ccccc1-c1ccncc1C(=O)Nc1nnc(OCc2ccc(Cl)cc2)s1 | DLD-1 BRCA2 wild-type | immunofluorescence | – | 5 µM, 96 h, >5 foci per nucleus | – | γH2AX foci-positive nuclei | 24.2% and 21% and 23%

SMILES | tested on | assay | system | conditions | scale | measurement | value
C1=[N+]2CCCC[N+]3=Cc4ccc5[n]4[Au-]23[n]2c1ccc2-c1nc2ccccc2nc1-5.F[P-](F)(F)(F)(F)F | COLO 205 | NCI60 five-dose screen | – | – | – | TGI | 4.64 -log M
CCCCCCCCCCCC(=O)N[C@@H](CO)C[C@@H](O)c1cccc(CCCCCC)c1 | HeLa | CERT activity, HPLC-MS/MS lipidomics | – | 1 µM, 24 h, not cell-number normalised | – | total ceramide level | 62500 pmol/sample and 74100 pmol/sample and 59600 pmol/sample
Cn1ncc(-c2ccc3c(=O)[nH]nc(CN)c3c2)c1-c1c(F)c(Cl)cc(OC2CC2)c1C#N | HCC1500 | cell viability, CellTiter-Glo | – | 120 h | – | IC50 | 60 nM
O=C(N/N=C/c1ccc2c(ccc[n+]2Cc2ccccc2)c1)c1ccc2ccc(C(=O)N/N=C/c3ccc4c(ccc[n+]4Cc4ccccc4)c3)nc2n1 | MYC parallel G4 DNA | FRET melting | – | 1 µM, DNA 0.2 µM | – | ΔTm | 13.4 ± 0.1 °C
Cc1cc(Cl)cc(-c2ccnc3cc(CN4C(=O)C5C(C4=O)C5(C)C)sc23)c1C[C@@H]1CNCCO1 (stereo partly drawn) | CHP-212 parental | annexin V/PI flow cytometry | – | 0.3 µM, 48 h | – | viable cells | 54.4% and 61.6% and 67.2%
Cc1ccncc1.[Cl-].[Cl-].[Ru+2].c1cc(-c2ccc3cccnc3n2)nc(-c2ccc3cccnc3n2)c1.c1ccc2cc3nc4c5cccnc5c5ncccc5c4nc3cc2c1 | SK-MEL-28 | – | – | visible light | baseline: dark EC50 over light EC50 | phototherapeutic index | 239
O=C(Nc1ccc(Sc2ccc3c(/C=C/c4ccccn4)n[nH]c3c2)cc1)c1ccco1 | Ba/F3 TEL-VEGFR1 | cell growth, CCK-8 | – | – | – | GI50 | 2700 nM
COC(=O)c1cc(NC2=NC(=O)C(=Cc3ccc(C)cc3)S2)ccc1OC(C)=O | MCF7 | GC-MS, item: L-Leucine | – | 1 µM | baseline: DMSO | metabolite level | -0.51 fold change
C=CC(=O)N1CCCC(n2c(=O)c3ncccc3n(Cc3ccc(Oc4ccccc4)cc3)c2=O)C1 (stereo not drawn) | Ri-1 | cell growth or viability, MTT | – | 72 h | – | IC50 | 7500 nM
CCN(CC)CC(=O)Nc1cccc(-n2cc(-c3ccc4ccc(-c5cn(-c6cccc(NC(=O)CN(CC)CC)c6)nn5)cc4c3)nn2)c1 | RCC4 | PCR angiogenesis array, item: PF4 | – | 5 x IC50, 6 h, normoxia | baseline: untreated | fold regulation | 1.06
C=CC(=O)N1[C@H](c2ccc3c(c2)OCO3)c2[nH]c3ccccc3c2C[C@@H]1C(=O)NC | rat DRG neurons | – | – | 0.3704 µM, 48 h, with: vincristine 40 nM | – | mean neuron degeneration | 43.7%
Cc1ccc2[c](c1)[Au-]([Cl])([Cl])[n+]1ccccc1-2 | A-375 | Incucyte | – | 2 µM, 6 days, no selenium supplementation | – | maximum confluency | 64%
O=C1CC[C@H](N2Cc3cc(-c4ccn5ncc(Cl)c5n4)ccc3C2=O)C(=O)N1 | MOLM-13 | protein level, TMT proteomics, item: AAGAB | – | 1 µM, 6 h | baseline: DMSO | log2 fold change | 0.0115
Oc1ccnc(-c2cc(O)ccn2)c1.[Cl-].[Cl-].[Ru+2].c1ccc(-c2ccnc3c2ccc2c(-c4ccccc4)ccnc23)cc1.c1ccc(-c2ccnc3c2ccc2c(-c4ccccc4)ccnc23)cc1 | MCF-10A | cell viability | – | – | baseline: dark EC50 over light EC50 | phototoxicity index | 480
CN1CCCNC(=O)c2cccc(c2)C(=O)NCCCN(C)CCCNc2cccc3c2C(=O)c2cccc(c2C3=O)NCCC1 | SAS | RNA-Seq, item: ATP1B3 mRNA | – | 5 µM, 24 h | baseline: untreated cells | log2 fold change | -2.84
CC(C)(C)c1cc(-c2ccc3cc4ccccc4nc3n2)nc(-c2ccc3cc4ccccc4nc3n2)c1.Cc1ccncc1.[Cl-].[Cl-].[Ru+2].c1ccc2cc3nc4c5cccnc5c5ncccc5c4nc3cc2c1 | A-375 | resazurin | – | with: light 733 nm, 100 J/cm2 | baseline: dark EC50 over light EC50 | phototoxicity index | 4
[177Lu+3].[Cl-].[Cl-].[Cl-] | 4T1 | flow cytometry | – | 0.4 Bq/cell, 48 h | – | dead cells | 27.2%
Fc1cncc(-c2ccc3[nH]c4ncnc(N[C@H]5CC[C@H](N6CCOCC6)CC5)c4c3c2)c1 | OCI-Ly3 | immunoblot | – | 10 µM, 24 h | – | IRAK4 phosphorylation | inhibited
